Measurements of several laboratories.
Numbered parts are unrelated; each lists some results of a single study. Substitutions count along the parent as printed.

Sample 1 — technique: RNA Bind-n-Seq; molecule type: RNA; matrix: in vitro; concentration: 365 nM; baseline: no-protein control; reading: higher = stronger binding; endpoint: RBNS enrichment (R)
Target: RNA binding protein fox-1 homolog 2, RRM domain, GST-SBP tag (RBFOX2, Homo sapiens, UniProt O43251-10, residues 100-194)
Setting: natural RNA segment, single round, ends assumed
Constant ends, left off below: GGGAGUUCUACAGUCCGACGAUC … UGGAAUUCUCGGGUGCCAA
Target sequence (chain): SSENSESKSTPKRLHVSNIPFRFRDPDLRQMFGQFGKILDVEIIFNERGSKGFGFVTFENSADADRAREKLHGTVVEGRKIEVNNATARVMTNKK
GUGCUAUUGCAGACAUGGCUGCAGUACUGUACCUUAUCAUUCUGAUGAAACUGAUUUGGAGCACCCUUUUCUUUAUCGCUACAUUUAUUUAGGGGACAAACUCCAUCCAG: 0.585
ACUUGGGACCAGAUCAGCUCUGCAUCCUUCAUUCUUCCCUCUGUCUCUAUUACGCAAUGUUCCGAAGUUAAAACCCACCAUCCUGCCGCUCAAGAAGACUGACCGGUACG: 0.888
ACCAUGCUAAGCCAUGACCAGUGAGGAGAAGCAACAGAGCCUGUCUGUCCCCAUGAGCGGAGUCUGUCCUCUGCUCUUCUGCAGUCAGGUCACUGCCUACUGCCUGGGGG: 0.238
AACAUCACGCAUGUCAUUCACUGCCUUGCCACUCCAUCUCCCUCCGUGCUCCAGCCACCCCUGAGCUGAGGCUCCCAUUGUCUCCAUCAGAGCCUGCAUGUGUAUGCCGU: 14.6
UGCUACUCCCAGGAAAUGGGCUCCUGACACAGCAGUCUGCCACCACAGCCCCAGGAGGGUGUCAACACCAGCAAAUGCUGUAUUUGCAGCAUGUCCAAGAUGACCCUUCU: 0.36
UUAAGGCCAGACCAGGCUGAGUGUGACCCCUGAGGUAAACACUCCACUAAGCUGUGUCUUGUUCAUGCCCCCUGCUCAGUGAAAGGUGAGUCCCGAGACCAGUUGGGUAC: 1.28
UAAAUUAGCAGAACCACAUCCCCAUCUGUUAGGCCUUGGUGAGGAGGCCCUGGGCAAAGAAGGGUCUUUCGCAAAGCGAUGUCAGAGGGCGGUUUUGAGCUUUCUAUAAG: 0.446
CUGCUCUCAAGGUUAAUUUUAACUUGGAGACUUUCAGCUCCUUGAAAGACUAUUAAUCCCUCCAGCCUGAUGACCAGUUCUCAGCUGUGGUGUGGCAGCUGAGGAAUUGG: 0.647
CAGCAGCUUCUUACCUGUGCGGGAGCGAAAAAGCUGGGCUUCAACAUGGCAGGUCUGUAGGGGUCAGACCCGAGCAGCCUGGACUUUACAGUUAUGUGAAACUGUCCACA: 0.274
CCUGGGUAGGAAAAUUAGAAGCAAGCUGGAUGCAGUGGCUCAUGCCUGUAAUCCCAACACUUUUGGGAGGUCCAGGCAGGAGGAUCACUUGGGCCCAGGAGGUCAAGCCU: 1.37
UUCAACUUUACAAUUGGUCUGUUGGGGUAUUAAAUGAAUUUGUGACUUAGGAUAUUUUCAUUUAUGAUGGGUUUAUCAGGAAGUAACCCCAUGGUAAGUUGAGGCAUAUC: 0.984
CUGGAGCCUGGCAGCCACAGACAUCAUACACAGCCUCUGAAGCUUAUUAAAGUAUGUUCACCCACUGGAUGAAAGGCUCUGUGCAGAGAGGGGAGGAACUGGGCCCUUGC: 0.735

Sample 2 — target: CCNA2, cyclin fold, Cln2 fusion (human); technique: yeast growth competition, sequencing; matrix: yeast; setting: strong parent motif; baseline: not given; reading: higher = stronger binding; endpoint: normalised enrichment score
Starting sequence: WEE1 docking peptide (human); HKTFRKLRLFDTP
HKQFRKLRLFDTP [T3Q]: 0.995
HKTFRKLKLFDTP [R8K]: 1.4
HKTFRWLRLFDTP [K6W]: 2.5
HKTFRKRRLFDTP [L7R]: 1.06
HKTVRKLRLFDTP [F4V]: 1.28
HKTFRKLRLFTTP [D11T]: 1.58
HKFFRKLRLFDTP [T3F]: 1.74
HKTFSKLRLFDTP [R5S]: 1.23
HKTFRKARLFDTP [L7A]: 0.625
HKTFRKLRLFDFP [T12F]: 2.49
HKTFRKWRLFDTP [L7W]: 1.88
HKTFRKLRLFDTY [P13Y]: 0.896
HKTFRKLRLFPTP [D11P]: 2.17
HKTFRKLRLFSTP [D11S]: -0.132
HKTLRKLRLFDTP [F4L]: 1.68
HKYFRKLRLFDTP [T3Y]: 1.19
NKTFRKLRLFDTP [H1N]: 0.545
HKTARKLRLFDTP [F4A]: 1.65
HKTFRKLRVFDTP [L9V]: 1.06
HKTFRKLRLFETP [D11E]: 1.28
HKTSRKLRLFDTP [F4S]: 1.35
HKTFRKLRAFDTP [L9A]: 2.41
HKTFRKLRLFCTP [D11C]: 2.03
HKTFRKLRLIDTP [F10I]: 1.69
HKTFRDLRLFDTP [K6D]: 1.3

Sample 3 — technique: RNA Bind-n-Seq; molecule type: RNA; matrix: in vitro; concentration: not given; baseline: input RNA pool; reading: higher = stronger binding; endpoint: bound/input enrichment
Target: RING finger protein unkempt homolog, zinc fingers 1-6, GST-SBP tag (UNK, Homo sapiens, UniProt Q9C0B0, residues 30-357)
Setting: RNA with constant flanks, human-mouse chimeric sites, ends assumed
Constant ends, left off below: GGGAGUUCUACAGUCCGACGAUC … CAACAGAGGAUUGAGCAUCA
Target sequence (chain): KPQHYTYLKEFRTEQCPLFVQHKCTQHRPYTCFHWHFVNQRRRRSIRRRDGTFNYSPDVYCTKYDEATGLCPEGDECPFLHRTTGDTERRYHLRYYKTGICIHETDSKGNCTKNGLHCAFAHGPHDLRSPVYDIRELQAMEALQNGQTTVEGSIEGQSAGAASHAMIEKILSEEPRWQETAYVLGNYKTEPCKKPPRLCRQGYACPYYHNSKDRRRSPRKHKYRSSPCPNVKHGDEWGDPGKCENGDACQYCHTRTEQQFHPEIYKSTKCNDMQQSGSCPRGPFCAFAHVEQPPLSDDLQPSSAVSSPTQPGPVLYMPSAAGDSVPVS
CAGUCCCCGUGUCCCAGUGCAGGACGAUGUGAACAAAAACUCAAAGCGGACCCUCUAUUGUAGUUCUUUUUUUAAAUAAUGUGCUAUUGUUUUUAAACUUUUUUUUUUUUUUUUUAAAGA: 7.75 ratio
UUCAAAGAAAAGGGCAGCUGUGUCAUUUCAUAAGUAACUCUGGGGGAGGGAAAUUCUAACUAGUUUGUUAAUUUUCCCCCAGAUAAAGCCAAAGUGUGUGUUGAAGAACUGAGAAAAAAU: 0.452 ratio
GUACUGCAGCAGCAGGGAAAACUGCAGGAAGCUCUGAUGCACUAUAAAGAAGCCAUACGAAUCAGUCCUACCUUUGCUGAUGCCUACUCUAAUAUGGGAAACACUCUAAAGGAGAUGCAG: 0.134 ratio
AGGAGGAGGUUAAAGGGUGAGAGUGGGAUGGAGGAUUGUGUCAUGGCUCUGGAGACAUUGUUUAGUGUCCUGCUUUCUCUGUGCAGACUGAUGGCCCCUUACACGCCCUUUCUGACUGAG: 0.162 ratio
CUGUGUGUGCUGAAUAAAUGGCUUGUAAAGAAGUUUUUCCAAGCUGUACCCAUGUACGUUAUUAUAGUUGCUGCAAAAUGUUCUUCCUAUUGAUGUUUUUAUUUGUUAACUGAAGGUCUC: 0.296 ratio
CGAGACAAGACAUCCAGGAACAUGCGAGGGUCACGGAUGAAUGGGUUGCCUAGCCCCACUCACAGCGCCCACUGUAGCUUCUACCGAACCAGAACCUUGCAGGCACUGAGUAAUGAGAAG: 0.0723 ratio
CACGUGUCUGCAGUACUUGAUGUGGACUACUCUCCCACUGGGAAGGAAUUUGUGUCUGCCAGCUUUGAUAAGUCUAUUAGAAUCUUUCCUGUGGACAAAAGUCGAAGCAGGGAGGUAUAU: 0.34 ratio
AAAGAACUACUGAGGCAAGGCAGCAAAUUUAGGAGAGACAUUUCAACAAUAUUGAUAGAGUUAGGAUUCCAAAUUAAAAAAAAAACUAAGACAUUAUAUAUCAACAAAGCCAAUGUGUGG: 22.3 ratio
CGGAGCCCUCCUCUCCCACAGGCCCAAGAUGUGACCCACCAGUGCCUUUUGUCUUCCUGUCAGCUCUGUCAAUCACGCCUGUCCUCUGUCCCUCUCACCAAGUGCCCAAAGUGGGGAGGG: 0.429 ratio

Sample 4 — technique: protein binding microarray; molecule type: double-stranded DNA, one strand shown; matrix: in vitro; concentration: not given; baseline: not given; reading: higher = stronger binding; endpoint: E-score
Target: Histone acetyltransferase KAT6A, both winged helices, GST fusion (KAT6A, Homo sapiens, UniProt Q92794, residues 1-181)
Setting: 8-mer, flanks averaged, mean of 2 arrays, mostly near background
Target sequence (chain): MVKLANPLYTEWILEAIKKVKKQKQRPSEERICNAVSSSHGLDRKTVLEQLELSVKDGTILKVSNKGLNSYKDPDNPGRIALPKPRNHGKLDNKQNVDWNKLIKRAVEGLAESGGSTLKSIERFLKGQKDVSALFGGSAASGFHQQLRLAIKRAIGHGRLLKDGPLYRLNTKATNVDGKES
ATACTACA: 0.0415
CCTTCCGA: 0.087
CTATTTAA: 0.092
GATTTCCC: -0.00177
CGTCCGTC: 0.162
GAGGGTAC: -0.199
CTTGTTTC: -0.213
CACCACTG: -0.152
AATCGGCC: 0.0875
ACATGCCT: -0.0683
CTCTGGAC: -0.105
ATCCCCAC: -0.245
CCATCCAC: -0.17
TAAACTAA: -0.0882
CCTAAAGA: -0.0752
AAGTACGA: -0.102
GTCAGCCA: -0.203
ATTACAGC: 0.0286
ACGGAACA: 0.227
CTTCCTTA: -0.156

A few entries again (sample 2):
HKTFRDLRLFDTP [K6D]: 1.3
HKFFRKLRLFDTP [T3F]: 1.74
HKTFRKLRLFDTY [P13Y]: 0.896
HKYFRKLRLFDTP [T3Y]: 1.19
